Results gathered from unrelated publications.
Lines come from different studies, so protocols differ. ± gives the spread as reported. ≈ marks a conversion by molar mass, not a printed value.

| Substance | test | test system | setting | scale | endpoint | value |
| --- | --- | --- | --- | --- | --- | --- |
| CNc1nc(Nc2ccc(-n3cnc(C)n3)c(OC)c2)nc2c1CC[C@H]2c1ccc(F)cc1 |  | human, plasma | oral, 300 mg, single dose, fed, healthy volunteers |  | AUC(0-inf) | 20.4 µg·h/mL |
| QFDEPR | substrate, gel electrophoresis | peptide, mouse, PyMT tumour, PyMT tumour tissue extract | 5 µM, 16 h, 37 °C, 2% extract, 1 mM ZnCl2 |  | peptide cleavage | < 10% |
| C[C@]12CC[C@@H]3c4ccc(O)cc4CC[C@H]3[C@@H]1C[C@@H](O)[C@@H]2O | GC-MS | breast cancer women on NSAI, serum | vaginal, 0.03 mg, 1 h, day 0 |  | maximum serum concentration | 0.0188 ng/mL |
| CCOc1ccc(C[C@@H](CN(CCN(CC(=O)[O-])CC(=O)[O-])CC(=O)[O-])N(CC(=O)[O-])CC(=O)[O-])cc1.[Gd+3].[H+].[H+] | biliary efflux, DCE-MRI | rat | intravenous, 25 µmol/kg |  | Km | 587 ± 15.4 µM |
| CCOc1nc2cccc(C(=O)O)c2n1Cc1ccc(-c2ccccc2-c2nnn[nH]2)cc1 | shake-flask | soybean oil | 37 °C |  | thermodynamic solubility | ≤ 0.03 mg/g |
| CCCC[C@H](NC(=O)CN1CCN(CC(=O)O)CCN(CC(=O)O)CCN(CC(=O)O)CC1)C(=O)N[C@H]1CC(=O)NCCCC[C@@H](C(N)=O)NC(=O)[C@H](Cc2c[nH]c3ccccc23)NC(=O)[C@H](CCCNC(=N)N)NC(=O)[C@@H](Cc2ccccc2)NC(=O)[C@H](Cc2c[nH]cn2)NC1=O [indium-111 labelled] |  | female C57 mice, B16/F1 melanoma, urine | intravenous, 0.037 MBq, 24 h |  | excreted dose | 87.3 ± 3.6% |
| CCCCN(CCCC)CCC(O)c1cc2c(Cl)cc(Cl)cc2c2cc(C(F)(F)F)ccc12 (stereo not drawn) | shake-flask | polysorbate 80 | 37 °C |  | thermodynamic solubility | 25 ± 1.6 mg/g |
| COc1cc(/C=C/c2ccc(N)cc2)cc(OC)c1 |  | rat, serum | oral, 40 mg/kg daily for three days, 24 h |  | concentration | 0.21 ± 0.001 µg/mL |
| CCCCC/C=C/C(=O)CCc1ccc(O)c(OC)c1 |  | rat, small intestine site 4 contents | oral, dose not given, 2 h, no β-glucuronidase treatment | reference: ingested amount | recovery | 0.35% |
| CN[C@H](CC(C)C)C(=O)N[C@H]1C(=O)N[C@@H](CC(N)=O)C(=O)N[C@H]2C(=O)N[C@H]3C(=O)N[C@H](C(=O)N[C@H](C(=O)O)c4cc(O)cc(O)c4-c4cc3ccc4O)[C@H](O)c3ccc(c(Cl)c3)Oc3cc2cc(c3O[C@@H]2O[C@H](CO)[C@@H](O)[C@H](O)[C@H]2O[C@H]2C[C@](C)(N)[C@H](O)[C@H](C)O2)Oc2ccc(cc2Cl)[C@H]1O |  | pig, Danish Landrace, plasma | intravenous, 1000 mg over 100 min, 450 min dosing interval, with: 4.0 µg/mL MIC | reference: dosing interval | time above MIC | 99% |
| [11CH3]c1ccccc1O[C@@H](c1ccccc1)[C@@H]1CNCCO1 |  | 1-octanol/phosphate buffer | pH 7.4 |  | log P | 2 to 2.47 |
| C[C@](N)(Cc1ccc(O)c(O)c1)C(=O)O |  | supercritical carbon dioxide | 5 h, 343 K, 15 MPa, density 507.5 kg/m3 |  | solubility | 0.0497 mg/mL (≈ 235 µM) |
| Cc1nc(-c2ccc(OCC(C)C)c(C#N)c2)sc1C(=O)O |  | pediatric patients under sample A kg, plasma | oral, 20 mg once daily, fed, PopPK post hoc |  | half-life at steady state | 9.53 ± 0.58 h |
| CCOc1ccc(Cc2cc([C@@H]3S[C@H](CO)[C@@H](O)[C@H](O)[C@H]3O)c(OC)cc2C)cc1 |  | human | oral, 5 mg/day, day 1, before breakfast |  | Vd/F | 40.3 ± 6.67 L |
| COc1cccc(OCCCN)c1-c1cc(Nc2cnc(C#N)cn2)n[nH]1 |  | human, plasma | intravenous, 105 mg/m², patients, infusion |  | clearance | 1280 mL/min |
| CC(C)(CC(=O)N1CCCC1)NCC(=O)N1C[C@@H](F)C[C@H]1C#N |  | Chinese type 2 diabetes patients, plasma | oral, 200 mg once daily, multiple doses |  | AUC(0-inf) at steady state | 3.85 µg·h/mL |
| CCCC[C@H](NC(C)=O)C(=O)N[C@H]1CCC(=O)NC[C@@H](C(=O)N[C@@H](Cc2c[nH]c3ccccc23)C(N)=O)NC(=O)[C@H](CCCNC(=N)N)NC(=O)[C@@H](Cc2ccccc2)NC(=O)[C@H](Cc2c[nH]cn2)NC1=O |  | healthy human, both sexes, plasma | subcutaneous, 3.0 mg once daily, day 1, geometric mean |  | Vd/F | 242 L |
| CC(C)=CCc1c(O)c(CC=C(C)C)c2oc3c(O)cccc3c(=O)c2c1O |  | Balb/c nu/nu mice, HT-29 xenograft, tumour tissue | oral, 901 mg/kg xanthones in diet, 4 weeks after implantation |  | free tumour concentration | 540 ± 40 ng/g |

Excerpt of the above:
| Substance | test | test system | setting | scale | endpoint | value |
| --- | --- | --- | --- | --- | --- | --- |
| CN[C@H](CC(C)C)C(=O)N[C@H]1C(=O)N[C@@H](CC(N)=O)C(=O)N[C@H]2C(=O)N[C@H]3C(=O)N[C@H](C(=O)N[C@H](C(=O)O)c4cc(O)cc(O)c4-c4cc3ccc4O)[C@H](O)c3ccc(c(Cl)c3)Oc3cc2cc(c3O[C@@H]2O[C@H](CO)[C@@H](O)[C@H](O)[C@H]2O[C@H]2C[C@](C)(N)[C@H](O)[C@H](C)O2)Oc2ccc(cc2Cl)[C@H]1O |  | pig, Danish Landrace, plasma | intravenous, 1000 mg over 100 min, 450 min dosing interval, with: 4.0 µg/mL MIC | reference: dosing interval | time above MIC | 99% |
| [11CH3]c1ccccc1O[C@@H](c1ccccc1)[C@@H]1CNCCO1 |  | 1-octanol/phosphate buffer | pH 7.4 |  | log P | 2 to 2.47 |
